Assay results collected from several papers.
Parts stem from different laboratories: compare values within a part only.

Block 1 — technique: protein binding microarray; molecule type: double-stranded DNA, one strand shown; medium: in vitro; concentration: not given; relative to: not given; reading: higher = stronger binding
Target: Histone acetyltransferase KAT6A, winged helix 1, GST fusion (KAT6A, Homo sapiens, UniProt Q92794, residues 1-85)
Setting: 8-mer, flanks averaged, mean of 2 arrays, mostly near background
Target sequence (chain): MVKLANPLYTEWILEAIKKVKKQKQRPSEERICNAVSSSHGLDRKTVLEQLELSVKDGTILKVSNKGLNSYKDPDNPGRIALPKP
| Strand | E-score |
| --- | --- |
| GTGTACAC | 0.0196 |
| GCTTGATA | 0.00449 |
| CCCCTTCC | -0.0366 |
| AAATACTT | -0.103 |
| AATGATAA | -0.109 |
| CCGGTGTA | 0.32 |
| AGCCAGGA | -0.163 |
| CCTTCTAG | -0.109 |
| AGATCGTC | -0.221 |

Block 2 — technique: universal PBM; molecule type: double-stranded DNA, one strand shown; medium: in vitro; concentration: not given; reading: higher = stronger binding
Target: Sal-like protein 4, full length isoform B (SALL4, Homo sapiens, UniProt Q9UJQ4-2, residues 1-616)
Setting: 8-mer, flanks averaged, mean of replicates
Construct (chain): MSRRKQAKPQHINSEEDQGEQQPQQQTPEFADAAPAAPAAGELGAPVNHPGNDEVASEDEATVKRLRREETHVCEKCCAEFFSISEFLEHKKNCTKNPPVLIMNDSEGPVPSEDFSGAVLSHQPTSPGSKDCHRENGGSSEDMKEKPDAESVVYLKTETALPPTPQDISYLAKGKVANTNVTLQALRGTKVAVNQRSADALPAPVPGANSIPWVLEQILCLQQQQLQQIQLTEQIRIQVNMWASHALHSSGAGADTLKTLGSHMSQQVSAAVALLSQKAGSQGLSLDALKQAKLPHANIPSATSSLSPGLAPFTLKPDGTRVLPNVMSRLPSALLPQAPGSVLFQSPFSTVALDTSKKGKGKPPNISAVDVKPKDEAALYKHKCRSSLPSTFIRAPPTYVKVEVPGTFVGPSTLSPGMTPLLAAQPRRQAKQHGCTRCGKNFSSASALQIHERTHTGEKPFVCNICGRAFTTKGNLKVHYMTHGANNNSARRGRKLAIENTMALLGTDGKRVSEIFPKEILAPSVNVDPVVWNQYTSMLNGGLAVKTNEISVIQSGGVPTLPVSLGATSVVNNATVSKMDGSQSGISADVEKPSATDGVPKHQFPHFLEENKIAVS
| Strand | E-score |
| --- | --- |
| GAATTGGA | 0.0622 |
| CACAAACG | 0.0163 |
| CGGGCTAG | -0.295 |
| ACAGCACG | -0.209 |
| ATTTGCGC | -0.0282 |

Block 3 — technique: aptamer microarray, sandwich; molecule type: DNA with 2'F-ANA; medium: in vitro; concentration: 200 nM; with: Cy3 exosite-II aptamer, 400 nM; reading: higher = stronger binding; strand: GGTTGGTGTGGTTGG
Target: Prothrombin, mature alpha-thrombin (F2, Homo sapiens, UniProt P00734)
Setting: whole 15-mer aptamer, many near background
| Modification | mean fluorescence intensity [a.u.] |
| --- | --- |
| 2'F-ANA at 4 6 9 10 12 14 | 79.6 |
| 2'F-ANA at 1 3 7 8 10 11 13 14 | 65.7 |
| 2'F-ANA at 1 2 6 7 8 9 12 15 | 400 |
| 2'F-ANA at 1 2 3 4 5 6 7 11 13 14 15 | 49.6 |
| 2'F-ANA at 1 2 3 4 6 7 8 10 11 12 15 | 88.9 |
| 2'F-ANA at 2 3 4 5 8 14 15 | 49.5 |
| 2'F-ANA at 12 14 | 292 |
| 2'F-ANA at 4 5 6 8 9 10 11 13 | 52.6 |

Mixed results
| Substance | target | assay | system | setting | scale | quantity | result |
| --- | --- | --- | --- | --- | --- | --- | --- |
| PhoQ, residues 284 288 289 292 302 303 TLMATV | PhoP, residues 12 14 15 18 19 LYHSL (Escherichia coli, UniProt P23836) | Sort-seq, measured: YFP reporter | E. coli | PhoQ-PhoP variant library, with: 10 µM Mg2+ | relative to: high Mg2+ state, higher = stronger signaling | fold induction | 1.95 |

For quick reference, copied from above (block 3):
| Modification | mean fluorescence intensity [a.u.] |
| --- | --- |
| 2'F-ANA at 4 6 9 10 12 14 | 79.6 |
| 2'F-ANA at 1 3 7 8 10 11 13 14 | 65.7 |
| 2'F-ANA at 1 2 6 7 8 9 12 15 | 400 |
| 2'F-ANA at 1 2 3 4 5 6 7 11 13 14 15 | 49.6 |
